Results pooled from the literature.
Numbered parts are unrelated; each lists some results of a single study.
UniProt P51813, sequence (whole entry, looked up): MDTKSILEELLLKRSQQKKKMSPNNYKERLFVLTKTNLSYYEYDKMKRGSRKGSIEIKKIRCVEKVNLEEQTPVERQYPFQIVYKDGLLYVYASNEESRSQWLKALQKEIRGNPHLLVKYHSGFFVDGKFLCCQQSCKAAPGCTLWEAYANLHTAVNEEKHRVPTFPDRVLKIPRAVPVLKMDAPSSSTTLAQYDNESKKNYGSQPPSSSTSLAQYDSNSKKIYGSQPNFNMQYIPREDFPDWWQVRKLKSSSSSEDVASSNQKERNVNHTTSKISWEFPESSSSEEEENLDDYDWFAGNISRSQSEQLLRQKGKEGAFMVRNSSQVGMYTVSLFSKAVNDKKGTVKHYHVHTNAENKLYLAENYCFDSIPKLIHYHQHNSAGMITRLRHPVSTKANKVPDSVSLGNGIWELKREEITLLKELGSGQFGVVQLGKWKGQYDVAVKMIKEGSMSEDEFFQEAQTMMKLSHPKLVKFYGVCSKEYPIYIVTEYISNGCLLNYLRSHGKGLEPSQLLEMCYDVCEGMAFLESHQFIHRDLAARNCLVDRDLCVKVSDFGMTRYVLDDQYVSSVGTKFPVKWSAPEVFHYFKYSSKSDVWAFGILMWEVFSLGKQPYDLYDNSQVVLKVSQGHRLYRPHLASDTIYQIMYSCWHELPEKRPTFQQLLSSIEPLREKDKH
UniProt Q59H18, sequence (whole entry, looked up): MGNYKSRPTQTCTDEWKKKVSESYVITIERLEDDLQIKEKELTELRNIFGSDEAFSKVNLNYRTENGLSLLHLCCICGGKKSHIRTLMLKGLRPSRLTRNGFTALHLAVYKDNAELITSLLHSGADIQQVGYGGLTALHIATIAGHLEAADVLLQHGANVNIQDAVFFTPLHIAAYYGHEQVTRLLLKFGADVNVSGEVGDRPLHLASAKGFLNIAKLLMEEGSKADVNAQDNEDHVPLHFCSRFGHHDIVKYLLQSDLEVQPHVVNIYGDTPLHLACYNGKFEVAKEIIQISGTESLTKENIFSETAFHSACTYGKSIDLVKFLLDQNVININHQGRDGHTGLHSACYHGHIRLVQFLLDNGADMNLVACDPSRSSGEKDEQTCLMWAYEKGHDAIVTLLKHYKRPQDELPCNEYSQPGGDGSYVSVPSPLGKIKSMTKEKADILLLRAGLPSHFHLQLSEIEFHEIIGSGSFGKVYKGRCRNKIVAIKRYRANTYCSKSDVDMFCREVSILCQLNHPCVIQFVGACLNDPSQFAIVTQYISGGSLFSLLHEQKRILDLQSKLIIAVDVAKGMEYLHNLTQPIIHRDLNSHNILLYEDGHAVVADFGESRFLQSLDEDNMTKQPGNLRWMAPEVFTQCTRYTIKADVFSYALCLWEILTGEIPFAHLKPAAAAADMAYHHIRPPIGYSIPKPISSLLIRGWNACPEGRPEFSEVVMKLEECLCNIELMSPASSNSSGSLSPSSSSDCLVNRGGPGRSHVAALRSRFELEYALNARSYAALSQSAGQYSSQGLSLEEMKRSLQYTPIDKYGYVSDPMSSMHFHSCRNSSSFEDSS
UniProt Q2M2I8, sequence (whole entry, looked up): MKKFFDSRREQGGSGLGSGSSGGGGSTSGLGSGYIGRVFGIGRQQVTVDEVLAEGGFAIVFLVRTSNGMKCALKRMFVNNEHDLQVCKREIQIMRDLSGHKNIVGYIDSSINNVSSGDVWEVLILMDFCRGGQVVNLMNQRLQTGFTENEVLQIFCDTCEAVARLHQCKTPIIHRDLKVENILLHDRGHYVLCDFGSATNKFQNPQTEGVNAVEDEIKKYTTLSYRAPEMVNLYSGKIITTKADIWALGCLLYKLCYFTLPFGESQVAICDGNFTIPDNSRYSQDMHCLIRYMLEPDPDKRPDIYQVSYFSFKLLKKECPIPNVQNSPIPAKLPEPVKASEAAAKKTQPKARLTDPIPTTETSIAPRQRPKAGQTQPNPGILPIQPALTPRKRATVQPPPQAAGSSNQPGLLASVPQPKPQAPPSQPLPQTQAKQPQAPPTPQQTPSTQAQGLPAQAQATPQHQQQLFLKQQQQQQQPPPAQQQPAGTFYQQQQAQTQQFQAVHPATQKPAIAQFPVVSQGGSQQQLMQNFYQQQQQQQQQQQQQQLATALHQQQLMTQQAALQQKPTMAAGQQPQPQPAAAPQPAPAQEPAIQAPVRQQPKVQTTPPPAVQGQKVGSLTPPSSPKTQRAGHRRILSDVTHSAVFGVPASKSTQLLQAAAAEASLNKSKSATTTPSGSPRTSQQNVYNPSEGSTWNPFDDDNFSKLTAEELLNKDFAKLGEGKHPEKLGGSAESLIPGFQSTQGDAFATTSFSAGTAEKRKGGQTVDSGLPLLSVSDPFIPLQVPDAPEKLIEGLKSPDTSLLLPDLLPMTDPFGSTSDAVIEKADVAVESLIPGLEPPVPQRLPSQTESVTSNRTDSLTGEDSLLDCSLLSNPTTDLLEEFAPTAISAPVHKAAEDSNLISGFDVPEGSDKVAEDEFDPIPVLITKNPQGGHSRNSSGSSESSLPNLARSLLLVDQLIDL
UniProt O95819, sequence (whole entry, looked up): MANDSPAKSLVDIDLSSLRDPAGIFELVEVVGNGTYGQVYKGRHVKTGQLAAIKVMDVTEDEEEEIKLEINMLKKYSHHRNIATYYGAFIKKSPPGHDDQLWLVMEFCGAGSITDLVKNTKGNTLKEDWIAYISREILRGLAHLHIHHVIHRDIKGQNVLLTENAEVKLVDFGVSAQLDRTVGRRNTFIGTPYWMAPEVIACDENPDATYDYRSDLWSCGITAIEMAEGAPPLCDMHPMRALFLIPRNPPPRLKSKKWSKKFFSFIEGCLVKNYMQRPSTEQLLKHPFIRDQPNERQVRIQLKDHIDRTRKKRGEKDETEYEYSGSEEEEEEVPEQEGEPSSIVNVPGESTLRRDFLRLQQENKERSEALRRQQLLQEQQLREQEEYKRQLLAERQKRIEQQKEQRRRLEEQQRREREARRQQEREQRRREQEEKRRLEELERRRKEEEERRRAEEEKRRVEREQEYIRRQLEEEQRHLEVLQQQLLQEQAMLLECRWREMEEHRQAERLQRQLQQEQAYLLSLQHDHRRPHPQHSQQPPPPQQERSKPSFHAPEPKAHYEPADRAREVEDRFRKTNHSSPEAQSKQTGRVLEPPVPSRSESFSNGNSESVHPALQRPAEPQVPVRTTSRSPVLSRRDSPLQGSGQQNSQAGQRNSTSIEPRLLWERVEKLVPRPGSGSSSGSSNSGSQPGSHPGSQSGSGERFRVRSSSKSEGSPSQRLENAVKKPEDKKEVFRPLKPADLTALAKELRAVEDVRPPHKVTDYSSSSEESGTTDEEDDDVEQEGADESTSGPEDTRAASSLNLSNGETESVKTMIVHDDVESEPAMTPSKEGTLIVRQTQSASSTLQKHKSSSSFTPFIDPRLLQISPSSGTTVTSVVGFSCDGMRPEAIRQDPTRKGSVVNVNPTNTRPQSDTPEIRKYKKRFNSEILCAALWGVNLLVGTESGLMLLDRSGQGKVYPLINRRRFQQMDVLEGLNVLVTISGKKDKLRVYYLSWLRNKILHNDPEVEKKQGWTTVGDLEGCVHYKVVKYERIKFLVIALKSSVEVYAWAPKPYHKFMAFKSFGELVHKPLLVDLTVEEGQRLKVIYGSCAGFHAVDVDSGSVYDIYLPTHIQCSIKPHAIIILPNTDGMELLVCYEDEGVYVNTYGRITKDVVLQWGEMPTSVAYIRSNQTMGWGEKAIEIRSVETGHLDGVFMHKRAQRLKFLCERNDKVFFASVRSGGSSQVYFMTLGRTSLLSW

Sample 1 — effect on: enzyme activity; action: inhibitor; concentration: 0.5 µM; relative to: control; quantity: remaining activity
Target: Dual serine/threonine and tyrosine protein kinase (DSTYK, Homo sapiens, UniProt Q6XUX3)
UniProt Q6XUX3, sequence (whole entry, looked up): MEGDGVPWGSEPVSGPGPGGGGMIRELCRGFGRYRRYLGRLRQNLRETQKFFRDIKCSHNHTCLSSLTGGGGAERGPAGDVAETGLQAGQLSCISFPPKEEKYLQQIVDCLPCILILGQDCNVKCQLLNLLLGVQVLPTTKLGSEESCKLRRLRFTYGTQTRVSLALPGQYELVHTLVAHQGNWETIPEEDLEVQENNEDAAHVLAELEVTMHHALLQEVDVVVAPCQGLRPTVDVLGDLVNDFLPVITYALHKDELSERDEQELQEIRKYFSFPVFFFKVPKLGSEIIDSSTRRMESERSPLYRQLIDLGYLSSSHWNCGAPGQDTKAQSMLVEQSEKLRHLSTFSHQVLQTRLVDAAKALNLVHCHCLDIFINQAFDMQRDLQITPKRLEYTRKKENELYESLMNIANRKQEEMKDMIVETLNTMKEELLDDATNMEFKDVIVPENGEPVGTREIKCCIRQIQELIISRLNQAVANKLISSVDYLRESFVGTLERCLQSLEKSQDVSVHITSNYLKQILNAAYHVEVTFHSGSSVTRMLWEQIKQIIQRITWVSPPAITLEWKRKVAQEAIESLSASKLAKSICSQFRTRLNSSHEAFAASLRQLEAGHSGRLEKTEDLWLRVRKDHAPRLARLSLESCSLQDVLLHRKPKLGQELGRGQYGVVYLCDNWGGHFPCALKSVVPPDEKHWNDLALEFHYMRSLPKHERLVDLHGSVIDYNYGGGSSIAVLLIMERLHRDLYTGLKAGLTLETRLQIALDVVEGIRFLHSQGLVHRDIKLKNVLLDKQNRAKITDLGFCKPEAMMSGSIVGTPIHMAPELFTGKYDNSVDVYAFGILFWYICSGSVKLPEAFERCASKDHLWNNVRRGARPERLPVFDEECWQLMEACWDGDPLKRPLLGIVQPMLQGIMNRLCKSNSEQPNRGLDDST
COc1cccc(-c2cc(=O)c3ccccc3o2)c1N: 97.1%
O=C1Nc2ccc(Br)cc2/C1=C/c1cc2c([nH]1)CCCC2: 93.1%
Cc1cc(Nc2cc(N3CCN(C)CC3)nc(Sc3ccc(NC(=O)C4CC4)cc3)n2)[nH]n1: 97.2%
CCCNC(=O)Nc1ccc(Oc2ncnc3cc(OC)c(OC)cc23)cc1Cl: 88.6%
CCCCc1c(-c2ccc(OC)cc2)[nH]c2nccnc12: 97.6%
O=C1Cc2c([nH]c3ccc(Br)cc23)-c2ccccc2N1: 98.6%
O=Nc1c(-c2c(O)[nH]c3cc(Br)ccc23)[nH]c2ccccc12: 102%
O=C1Nc2ccccc2/C1=C\c1c(Cl)[nH]c2ccccc12: 95.7%
COc1ccc(COc2ccc(Cc3cnc(N)nc3N)cc2OC)cc1: 95%
CN1CCN(c2ccc3nc(-c4c(N)c5c(F)cccc5[nH]c4=O)[nH]c3c2)CC1: 98.4%
CN(C)S(=O)(=O)c1ccc2c(c1)/C(=C/c1cc3c([nH]1)CCCC3)C(=O)N2: 96%
O=C1NC(=O)c2c1c1c3ccccc3[nH]c1n1cncc21: 106%
N#Cc1cnc2cnc(NCc3cccnc3)cc2c1Nc1ccc(F)c(Cl)c1: 87.3%
COc1ccc2c(c1)c(C1=C(c3c[nH]c4ccccc34)C(=O)NC1=O)cn2CCCN(C)C: 82.8%
Cc1ccc(S(=O)(=O)/C=C/C#N)cc1: 97.8%
O=c1cc(N2CCOCC2)oc2c(-c3ccccc3)cccc12: 113%
O=C(c1cc2cc(O)ccc2[nH]1)c1cc2cc(O)ccc2[nH]1: 95.5%
c1ccc2c(-c3ccncc3)c[nH]c2c1: 95.9%
c1ccc(-c2n[nH]c3c2oc2ccccc23)cc1: 82.9%
Oc1cccc(-c2nc(N3CCOCC3)c3oc4ncccc4c3n2)c1: 96.1%

Sample 2 — organism: Sarcocystis neurona; effect on: parasite growth; concentration: 10 µM; time: 96 h; quantity: inhibition
CC(C(O)c1ccc(O)cc1)N1CCC(Cc2ccccc2)CC1 (stereo not shown): -5.8%
CC/C(=C(\c1ccccc1)c1ccc(OCCN(C)C)cc1)c1ccccc1: -3.3%
CN(C)CCCN1c2ccccc2CCc2ccccc21: -12.4%
CCCNC(C)C(=O)Nc1ccccc1C (stereo not shown): -7.4%
CO[C@@]1(NC(=O)Cc2cccs2)C(=O)N2C(C(=O)O)=C(COC(N)=O)CS[C@@H]21: -16.7%
CC(=O)OCC(=O)[C@@]1(O)CC[C@H]2[C@@H]3CCC4=CC(=O)C=C[C@]4(C)[C@H]3[C@@H](O)C[C@@]21C: -5.5%
CCOc1ccc2ccccc2c1C(=O)N[C@@H]1C(=O)N2[C@@H]1SC(C)(C)[C@@H]2C(=O)O: -13%
CCOC(=O)C1=C(COCCN)NC(C)=C(C(=O)OC)C1c1ccccc1Cl (stereo not shown): -3.8%
CCOC(=O)N1CCC(=C2c3ccc(Cl)cc3CCc3cccnc32)CC1: -5.8%
COc1cc(C(=O)NS(=O)(=O)c2ccccc2C)ccc1Cc1cn(C)c2ccc(NC(=O)OC3CCCC3)cc12: -12.4%
O=C(O)c1cc(-c2ccc(F)cc2F)ccc1O: -13.9%
Nc1ccn([C@@H]2CS[C@H](CO)O2)c(=O)n1: -9.7%
CN(C)CCc1c[nH]c2ccc(Cn3cncn3)cc12: -16.7%

Sample 3 — effect on: acetyl-histone H4 peptide binding; technique: AlphaScreen displacement; concentration: 50 µM; quantity: inhibition
Target: Bromodomain-containing protein 4, BD1 (BRD4, Homo sapiens, UniProt O60885)
O=C(NCc1ccccn1)c1n[nH]c2ccccc12: 7%
CC(C)c1nn(-c2c(Cl)cccc2Cl)c2nc(Cc3ccc(OCCO)cc3)[nH]c(=O)c12: 9.35%
O=C1c2ccccc2-c2nc3nnnn3nc21: 12.6%
Cc1nc2ccccn2c1-c1csc(Nc2ccc(S(N)(=O)=O)cc2)n1: 12.8%
N#CC(=Cc1ccncc1)c1nc(-c2ccccc2)cs1: 23.2%
Cc1nc(Nc2n[nH]c3c2CN(C(=O)N[C@H](CN(C)C)c2ccccc2)C3(C)C)c2sccc2n1: 13.2%
N=C(N)NCCNS(=O)(=O)c1cccc2cnccc12: 10.3%
Cn1c(=O)c(C(=O)NNS(=O)(=O)c2ccc(Br)cc2)c(O)c2ccccc21: 0.85%
Cc1ccnc(NC(=O)c2n[nH]c3ccccc23)c1: 12.8%
O=C(Nc1cccc(Nc2ncc(Br)c(NCCc3cnc[nH]3)n2)c1)N1CCCC1: 30.9%
Nc1nc(SCc2c(Cl)cccc2Cl)c2nc[nH]c2n1: 47.9%
O=C(NCC(F)(F)F)c1n[nH]c2ccccc12: 6.15%

Sample 4 — concentration: 1 µM; quantity: remaining binding
Compound: CCC(=O)N[C@@H]1CC[C@H](C(=O)N(C)c2ccc(-c3nc4ccccc4o3)cc2)C1
TNNI3K (Homo sapiens, UniProt Q59H18); cell-free assay, competition with immobilised ligand: 99%
Tyrosine-protein kinase ABL1, phosphorylated (ABL1, Homo sapiens, UniProt P00519); cell-free assay, competition with immobilised ligand: 96%
CIT (Homo sapiens, UniProt O14578); cell-free assay, competition with immobilised ligand: 93%
CLK1 (Homo sapiens, UniProt P49759); cell-free assay, competition with immobilised ligand: 100%
EPHA2 (Homo sapiens, UniProt P29317); cell-free assay, competition with immobilised ligand: 94%
STK3 (Homo sapiens, UniProt Q13188); cell-free assay, competition with immobilised ligand: 100%
FLT3 (Homo sapiens, UniProt P36888, F691L/ITD); cell-free assay, competition with immobilised ligand: 76%
ULK1 (Homo sapiens, UniProt O75385); cell-free assay, competition with immobilised ligand: 100%
Ribosomal protein S6 kinase alpha-4, N-terminal kinase domain (RPS6KA4, Homo sapiens, UniProt O75676); cell-free assay, competition with immobilised ligand: 100%
GAK (Homo sapiens, UniProt O14976); cell-free assay, competition with immobilised ligand: 100%
FYN (Homo sapiens, UniProt P06241); cell-free assay, competition with immobilised ligand: 85%
Tyrosine-protein kinase JAK2, JH1 (JAK2, Homo sapiens, UniProt O60674); cell-free assay, competition with immobilised ligand: 100%
AAK1 (Homo sapiens, UniProt Q2M2I8); binding: 100%
LTK (Homo sapiens, UniProt P29376); cell-free assay, competition with immobilised ligand: 93%
BMX (Homo sapiens, UniProt P51813); cell-free assay, competition with immobilised ligand: 98%
MAP4K4 (Homo sapiens, UniProt O95819); cell-free assay, competition with immobilised ligand: 100%

Excerpt of the above (sample 1):
COc1cccc(-c2cc(=O)c3ccccc3o2)c1N: 97.1%
O=C1Nc2ccc(Br)cc2/C1=C/c1cc2c([nH]1)CCCC2: 93.1%
Cc1cc(Nc2cc(N3CCN(C)CC3)nc(Sc3ccc(NC(=O)C4CC4)cc3)n2)[nH]n1: 97.2%
CCCNC(=O)Nc1ccc(Oc2ncnc3cc(OC)c(OC)cc23)cc1Cl: 88.6%
CCCCc1c(-c2ccc(OC)cc2)[nH]c2nccnc12: 97.6%
